# Earlier results as cited in several papers.
# Lines come from different studies, so protocols differ. pIC50: −log10 of the molar value.
# Sequence of UniProt Q9UIK4 (whole entry, looked up): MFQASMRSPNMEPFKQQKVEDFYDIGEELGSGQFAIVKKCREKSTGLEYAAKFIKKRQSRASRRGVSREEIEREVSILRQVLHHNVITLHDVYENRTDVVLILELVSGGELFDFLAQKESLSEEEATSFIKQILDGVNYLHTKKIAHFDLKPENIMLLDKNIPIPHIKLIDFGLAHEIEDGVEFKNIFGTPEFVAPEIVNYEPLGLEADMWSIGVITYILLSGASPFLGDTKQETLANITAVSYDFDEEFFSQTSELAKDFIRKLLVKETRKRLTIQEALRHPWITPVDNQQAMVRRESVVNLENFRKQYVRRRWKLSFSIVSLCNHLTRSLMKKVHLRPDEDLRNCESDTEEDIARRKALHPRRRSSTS
Structure (SMILES),target or system,test,system,conditions,scale,endpoint,value
CC1(C)S[C@@H]2[C@H](NC(=O)[C@H](N)c3ccccc3)C(=O)N2[C@H]1C(=O)O,Pseudomonas aeruginosa,,clinical isolate RKI-No_82/10,,,MIC,> 16 µg/mL
Cc1[nH]c(C)c(-c2ccc(OCc3ccc(OC(F)(F)F)cc3)nc2)c(=O)c1Cl,Plasmodium falciparum,whole cell extended time,3D7,72 h,,pIC50,7.15
FC(F)(F)c1ccc(Oc2ccc(-c3noc(-c4ccc5[nH]ccc5c4)n3)cc2)cc1,Enterobacter aerogenes,,ATCC 35029,,,MIC,> 128 µg/mL
Oc1ccc(-c2nc(-c3ccc(OC4CCCC4)cc3)no2)cc1,Klebsiella pneumoniae,,ATCC 700603,,,MIC,> 128 µg/mL
C[C@H]1COCCN1c1nc(-c2cnc(N)cc2C(F)F)nc(N2CCOCC2)n1,Jurkat E6-1,,,,,GI50,1130 nM
CCCCCCc1ccc(Oc2ccccc2C)c(O)c1,Mycobacterium tuberculosis,,H37Rv,,,MIC,3.13 µg/mL
CCc1c(Cl)c(O)c(Cl)c(O)c1C(=O)O[C@H]1[C@H](O)[C@H](OC)[C@H](OC/C2=C\C=C\C[C@H](O)/C(C)=C/[C@H](CC)[C@@H](O[C@@H]3OC(C)(C)[C@@H](OC(=O)C(C)C)[C@H](O)[C@@H]3O)/C(C)=C/C(C)=C/C[C@@H]([C@@H](C)O)OC2=O)O[C@@H]1C,Corynebacterium sp.,,HM-784,,,MIC,< 0.06 µg/mL
CNC(C)C1CCC(N)C(OC2C(N)CC(N)C(OC3OCC(C)(O)C(NC)C3O)C2O)O1 (centres unmarked),Klebsiella pneumoniae,,clinical isolate RKI-No_461/16,,,MIC,≤ 0.5 µg/mL
CCc1c(Cl)c(O)c(Cl)c(O)c1C(=O)O[C@H]1[C@H](O)[C@H](OC)[C@H](OC/C2=C\C=C\C[C@H](O)/C(C)=C/[C@H](CC)[C@@H](O[C@@H]3OC(C)(C)[C@@H](OC(=O)C(C)C)[C@H](O)[C@@H]3O)/C(C)=C/C(C)=C/C[C@@H]([C@@H](C)O)OC2=O)O[C@@H]1C,Fusobacterium nucleatum,,HM-992,,,MIC,< 0.06 µg/mL
O=C(c1cc(-c2ccco2)[nH]n1)N1CCN(S(=O)(=O)c2ccc(Cl)cc2)CC1,Plasmodium falciparum,whole cell extended time,3D7,72 h,,pIC50,6.44
Nc1cc(C(F)(F)F)c(-c2nc(N3CCOCC3)nc(N3CCOCC3)n2)cn1,"Death-associated protein kinase 2 (DAPK2, Homo sapiens, UniProt Q9UIK4)",enzyme activity,,10 µM,relative to: untreated,remaining activity,94%
COc1ccc(-c2ccn(CC[C@](C)(C(=O)NO)S(C)(=O)=O)c(=O)c2)c(F)c1,Pseudomonas aeruginosa,,PAO1,,,MIC,0.6 µM
Oc1ccc(-c2nc(-c3ccc(OC4CCCC4)cc3)no2)cc1,Pseudomonas aeruginosa,,ATCC 27853,,,MIC,> 128 µg/mL
O=C(O)[C@H]1O[C@@H](Oc2cc3oc(-c4ccccc4)cc(=O)c3c(O)c2O)[C@H](O)[C@@H](O)[C@@H]1O,Mycoplasma gallisepticum,,,,,MIC,31.2 µg/mL

# Some of these lines once more:
Structure (SMILES),target or system,test,system,conditions,scale,endpoint,value
Nc1cc(C(F)(F)F)c(-c2nc(N3CCOCC3)nc(N3CCOCC3)n2)cn1,"Death-associated protein kinase 2 (DAPK2, Homo sapiens, UniProt Q9UIK4)",enzyme activity,,10 µM,relative to: untreated,remaining activity,94%
Oc1ccc(-c2nc(-c3ccc(OC4CCCC4)cc3)no2)cc1,Klebsiella pneumoniae,,ATCC 700603,,,MIC,> 128 µg/mL
